Results pooled from the literature.
Parts stem from different laboratories: compare values within a part only.

Series 1 — technique: competition protein-binding microarray; molecule type: double-stranded DNA, one strand shown; medium: in vitro; tested at: 2 µM; added: Pho4 competitor, 0.05 µM; direction: higher = stronger binding; quantity: fluorescence intensity
Target: Centromere-binding protein 1, full length, His-tagged (CBF1, Saccharomyces cerevisiae, UniProt P17106, residues 1-351)
Sequence of UniProt P17106 (whole entry, looked up): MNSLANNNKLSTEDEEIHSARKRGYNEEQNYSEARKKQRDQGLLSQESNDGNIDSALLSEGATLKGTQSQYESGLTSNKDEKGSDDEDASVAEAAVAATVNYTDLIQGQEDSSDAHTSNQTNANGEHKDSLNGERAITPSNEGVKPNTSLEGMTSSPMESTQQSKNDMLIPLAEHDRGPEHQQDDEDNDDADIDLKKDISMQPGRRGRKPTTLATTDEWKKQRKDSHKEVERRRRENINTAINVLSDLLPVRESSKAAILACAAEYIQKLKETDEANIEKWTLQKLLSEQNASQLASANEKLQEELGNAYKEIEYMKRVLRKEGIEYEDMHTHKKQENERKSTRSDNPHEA
Notes: whole 60-bp probe, lowest competitor level
CCACCATCGTTACCAAATGTGACGGCTGCACCTAAAGTCTTGATTCGCTTGACGCTGCTG: 79 a.u.
CTAACGAAGGTTTTTCACGTGTGATACAAGCCAAGTGTCTTGATTCGCTTGACGCTGCTG: 654 a.u.
CTTCGTCTCTAACTAAACGTGCTAAAGTGTAAAACGGTCTTGATTCGCTTGACGCTGCTG: 128 a.u.
GTATAAATGTAGTTAAAAGTTTTTGTTTTGATAATTGTCTTGATTCGCTTGACGCTGCTG: 90.6 a.u.

Series 2 — technique: protein binding microarray; molecule type: double-stranded DNA, one strand shown; medium: in vitro; tested at: not given; baseline: not given; direction: higher = stronger binding; quantity: E-score
Target: Histone acetyltransferase KAT6A, winged helix 1, GST fusion (KAT6A, Homo sapiens, UniProt Q92794, residues 1-85)
Notes: 8-mer, flanks averaged, mean of 2 arrays, mostly near background
Residues (chain): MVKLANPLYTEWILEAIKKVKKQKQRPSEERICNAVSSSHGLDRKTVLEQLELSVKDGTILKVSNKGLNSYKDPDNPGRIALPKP
ATATTGTG: -0.0716
TGCGTCCA: 0.079
GCGCAACC: 0.274
ACCGTACA: 0.052

Series 3 — technique: RNA Bind-n-Seq; molecule type: RNA; medium: in vitro; tested at: 365 nM; baseline: no-protein control; direction: higher = stronger binding; quantity: RBNS enrichment (R)
Target: RNA binding protein fox-1 homolog 2, RRM domain, GST-SBP tag (RBFOX2, Homo sapiens, UniProt O43251-10, residues 100-194)
Notes: natural RNA segment, single round, ends assumed
Constant ends, left off below: GGGAGUUCUACAGUCCGACGAUC … UGGAAUUCUCGGGUGCCAA
CCCACCGUUGAGGCUAUCUGAAGUGUAUUGUAUGAAGGAAGUAUCAAGAACAAAUCAUUGGCCCGUUAUAGCAAAUAGUUGCUUAAGUAGCAGUUGUCAUAGACUAAUCA: 0.704
GUGUGGGUCACUGUGAGGUGACUGCAUGGUGCCUGGCCCUGGCACAGCUGGUGACUUCCCUUGUAGAGUGUUUGCGUAGUGGAGUGGCUGUGGCUCACCACCCCCUUUCC: 0.995
UGAGUCAUUCUGUCCAUUCCUCCACCAGCUCCUGGGCACCACCUGAGAAACCGUGCUCUCUAAGUUUGUUCUCUGCUUUGACCCCACUUUUAUAGCUGUCUUUGCAUCUU: 1.34
GUAAGAACUAAUAACCUGUGUCUCCUAGACGAGUCAGGAUGGGAACUGACCUCUAGGAGAUUCUAGUCAGGAGCCCACUAACCUGGGCCGUCAUGUUUAGAGCUGAAGGA: 0.597
CUGUACUGCAGCCAAGGUGACGUGUGACUUGGAUUUGAGUGGAGUUGGGCUUAGCCUUAGUCUCAUUCAAUCUCCAUUAUUACAGCCAUGGGGAAGAGUGAAAGAUAUAA: 0.611
CCACCACCAACAACAAAAAACAAAAGUCCAAAAAACCAAAAAACCUACAAAGGCAAAAGAGGUUUGAGAGCCGUGGUUGUUUAGGACAGUUGUGGUUUGUAGCAGGAAAG: 0.518

Single results of other studies
PhoQ, residues 284 288 289 292 302 303 TLMATV — fold induction (PhoP, residues 12 14 15 18 19 TPWLV (Escherichia coli, UniProt P23836); Sort-seq, item: YFP reporter; E. coli; PhoQ-PhoP variant library, added: 10 µM Mg2+; baseline: high Mg2+ state, higher = stronger signaling): 19.4

Repeated from above (series 1):
CTAACGAAGGTTTTTCACGTGTGATACAAGCCAAGTGTCTTGATTCGCTTGACGCTGCTG: 654 a.u.
CTTCGTCTCTAACTAAACGTGCTAAAGTGTAAAACGGTCTTGATTCGCTTGACGCTGCTG: 128 a.u.
